Results collected from several papers.
Each numbered part is a random draw from the data of one study; scales do not carry over between parts.

Study 1 — effect on: enzyme activity; mode: inhibitor; concentration: 10 µM; measurement: inhibition
Target: Calcium/calmodulin-dependent protein kinase type II subunit alpha (CAMK2A, Homo sapiens, UniProt Q9UQM7)
Chain of UniProt Q9UQM7 (whole entry, looked up): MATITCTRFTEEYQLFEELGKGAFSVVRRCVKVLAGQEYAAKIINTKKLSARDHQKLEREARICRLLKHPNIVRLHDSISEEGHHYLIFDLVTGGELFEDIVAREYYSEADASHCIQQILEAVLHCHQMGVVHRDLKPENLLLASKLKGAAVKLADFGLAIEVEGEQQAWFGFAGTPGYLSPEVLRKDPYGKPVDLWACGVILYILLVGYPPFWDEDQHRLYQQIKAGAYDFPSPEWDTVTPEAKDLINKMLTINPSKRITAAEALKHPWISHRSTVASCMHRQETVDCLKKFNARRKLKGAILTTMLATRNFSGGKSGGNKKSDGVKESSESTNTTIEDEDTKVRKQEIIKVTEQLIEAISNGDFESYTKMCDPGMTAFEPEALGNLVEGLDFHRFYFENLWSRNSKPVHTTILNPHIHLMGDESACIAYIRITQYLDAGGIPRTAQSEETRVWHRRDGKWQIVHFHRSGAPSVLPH
O=C(CNC(=O)c1ccc(C2=NOC(c3cc(Cl)cc(C(F)(F)F)c3)(C(F)(F)F)C2)c2ccccc12)NCC(F)(F)F (stereo not shown): -7%
CC1=C[C@H]2[C@@]3(O)[C@H](C)[C@@H](O)[C@]4(O)[C@H]([C@@H]3C=C(CO)C[C@]2(O)C1=O)C4(C)C: -6%
CN[C@@H]1C[C@H]2O[C@@](C)([C@@H]1OC)n1c3ccccc3c3c4c(c5c6ccccc6n2c5c31)C(=O)NC4: 88%
COc1cc([C@@H]2c3cc4c(cc3C(=O)[C@H]3COC(=O)[C@H]23)OCO4)cc(OC)c1OC: -71%

Study 2 — mode: degrader; technique: HiBiT; cell line: HEK293; concentration: 3333.33 nM; measurement: protein remaining
Target: CRBN/Zinc finger protein Helios (Homo sapiens, UniProt Q96SW2+Q9UKS7)
Chain of UniProt Q9UKS7 (whole entry, looked up): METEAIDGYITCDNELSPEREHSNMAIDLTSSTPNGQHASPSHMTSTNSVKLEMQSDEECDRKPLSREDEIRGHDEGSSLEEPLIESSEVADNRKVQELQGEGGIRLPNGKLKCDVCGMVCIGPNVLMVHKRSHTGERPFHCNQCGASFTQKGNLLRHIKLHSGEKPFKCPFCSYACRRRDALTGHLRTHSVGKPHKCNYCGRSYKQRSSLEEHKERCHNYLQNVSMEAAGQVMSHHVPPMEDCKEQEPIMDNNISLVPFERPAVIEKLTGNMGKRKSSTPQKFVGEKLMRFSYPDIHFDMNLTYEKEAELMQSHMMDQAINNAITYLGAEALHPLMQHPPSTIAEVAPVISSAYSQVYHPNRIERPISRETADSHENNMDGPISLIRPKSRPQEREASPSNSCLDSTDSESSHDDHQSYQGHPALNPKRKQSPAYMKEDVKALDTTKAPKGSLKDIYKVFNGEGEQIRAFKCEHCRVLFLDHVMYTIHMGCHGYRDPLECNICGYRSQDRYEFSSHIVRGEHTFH
Chain of UniProt Q96SW2 (whole entry, looked up): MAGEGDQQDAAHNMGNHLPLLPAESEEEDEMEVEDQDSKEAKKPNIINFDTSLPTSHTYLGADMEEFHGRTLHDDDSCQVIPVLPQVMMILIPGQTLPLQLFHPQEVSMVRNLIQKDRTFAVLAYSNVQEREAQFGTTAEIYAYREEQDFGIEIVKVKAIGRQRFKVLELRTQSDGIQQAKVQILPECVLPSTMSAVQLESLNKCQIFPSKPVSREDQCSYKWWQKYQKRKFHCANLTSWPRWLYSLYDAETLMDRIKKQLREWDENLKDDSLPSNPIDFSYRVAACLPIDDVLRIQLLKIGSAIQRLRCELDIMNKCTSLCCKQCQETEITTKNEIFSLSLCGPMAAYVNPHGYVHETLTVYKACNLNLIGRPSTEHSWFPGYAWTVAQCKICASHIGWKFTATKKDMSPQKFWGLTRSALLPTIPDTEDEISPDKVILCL
O=C1CCC(N2Cc3c(ccc4c3OCC43CCN(CC4CCCCC4)CC3)C2=O)C(=O)N1 (stereo not shown): 41.4%
O=C1CCC(N2Cc3c(ccc4c3OCC43CCN(Cc4ccccn4)CC3)C2=O)C(=O)N1 (stereo not shown): 48%
O=C1CCC(N2Cc3c(ccc4c3OCC43CCN(Cc4ccccc4)CC3(F)F)C2=O)C(=O)N1 (stereo not shown): 32.3%
O=C1CCC(N2Cc3c(ccc4c3OCC43CCN(Cc4ccccc4)C3)C2=O)C(=O)N1 (stereo not shown): 67.4%
O=C1CCC(N2Cc3c(ccc4c3OCC43CCCN(Cc4ccccc4)CC3)C2=O)C(=O)N1 (stereo not shown): 94.8%
O=C1CCC(N2Cc3c(ccc4c3OCC43CCN(Cc4ccsc4)CC3)C2=O)C(=O)N1 (stereo not shown): 25.1%

Study 3 — effect on: binding; technique: radioligand binding; concentration: 10 µM; measurement: inhibition
Target: Delta-type opioid receptor (OPRD1, Homo sapiens, UniProt P41143)
Chain of UniProt P41143 (whole entry, looked up): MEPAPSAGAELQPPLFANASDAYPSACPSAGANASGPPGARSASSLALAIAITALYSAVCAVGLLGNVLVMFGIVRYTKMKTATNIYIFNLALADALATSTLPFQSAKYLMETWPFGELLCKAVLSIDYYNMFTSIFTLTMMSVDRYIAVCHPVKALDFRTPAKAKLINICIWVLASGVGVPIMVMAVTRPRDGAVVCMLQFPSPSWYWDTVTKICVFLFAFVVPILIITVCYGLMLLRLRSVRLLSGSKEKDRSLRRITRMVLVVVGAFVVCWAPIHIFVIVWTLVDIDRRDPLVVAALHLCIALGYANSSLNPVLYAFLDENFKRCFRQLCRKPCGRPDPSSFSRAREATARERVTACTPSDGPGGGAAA
O=C(Nc1cccnn1)N1CCC(=Cc2cccc(Oc3ccc(C(F)(F)F)cn3)c2)CC1: 12.3%
CN([C@@H]1CCc2c(CC(=O)O)c3cc(S(C)(=O)=O)ccc3n2C1)S(=O)(=O)c1ccc(F)cc1: 20%
Cc1cc(-n2nc(Cc3cc(F)cc(C(F)(F)F)c3)nc2C)ccc1C(N)=O: -1.45%
Cc1nc(C2CCN(C(=O)c3ccc(OC(F)(F)F)cc3N)CC2)c2ncc(N3CCN(C)CC3)cc2n1: 4.34%
Cc1nc(Cc2cccc(C(F)(F)F)c2)sc1-c1ccc(C(N)=O)nc1: 4.01%
Nc1c(C(=O)NCc2ccc(C(=O)NCCCC3CCCCC3)cc2)cnn1-c1ccccc1: 24.1%
O=C1c2ccc(Nc3ccc(F)cc3F)cc2CCc2ccc(OC[C@H](O)CO)cc21: 10.3%
CNC(=O)c1ccc(Nc2ncc(C(F)(F)F)c(NCc3nccnc3N(C)S(C)(=O)=O)n2)cc1: -0.28%
CN1CCN(C(=O)C(C)(C)c2ccc(C(=O)Nc3cn4cc(-c5ccncc5)ccc4n3)cc2)CC1: 4.05%
Cc1nccc(COC(=O)N2C[C@@H]3[C@@H](CNC(=O)c4ccc5[nH]nnc5c4)[C@@H]3C2)n1: -1.41%
Cc1c(N2CCCC2)nc2ccc(Br)cc2c1C(=O)NC[C@H](CCC(=O)O)c1ccccc1Cl: 15.4%
CC(=O)Nc1nc(CN2CCC[C@H](Cc3cc(C)nc(C)c3)C2)cs1: 8.67%
CC(=O)c1c(NS(C)(=O)=O)c2cc(-c3ccc(Cl)cc3)c(-c3ccc(Cl)cc3Cl)nc2n(C)c1=O: 73.6%
CC(C)CC(=O)N1CCc2nc(-c3ccc(Br)cc3)nc(N(C)Cc3ccccc3)c2C1: 8.22%
CC1=C(C#N)[C@@H](c2ccc3[nH]nc(C)c3c2)C(C#N)=C(c2ccc(Cl)cc2)N1: 33.4%
COCCc1ccc(-c2c(C)nc3c(N4CCOCC4)ccnn23)cn1: 7.84%
C[C@@]1(Cc2ccc(C#N)cc2)C(=O)N(c2cc(Cl)cc(Cl)c2)c2ncc(C(=O)NC3(c4nc(C5CCC5)no4)CC3)n21: 8.3%
O=C([C@H]1C[C@H](O)CN1c1ccc(Cl)cc1)N1CC2COCC(C1)N2Cc1ccc(Cl)cc1: -15%
Cc1c[nH]c2nccc(Oc3c(F)cc(Nc4cc(Cl)nc(N)n4)cc3F)c12: 7.96%
C[C@H](NC(=O)c1cnc2n1[C@](C)(Cc1ccc(C#N)cc1)C(=O)N2c1cc(Cl)c(F)c(Cl)c1)C(=O)NC1(c2ccccn2)CC1: -0.33%
CNC(=O)c1cc(C(=O)NC2CC2)cn(Cc2ccccc2)c1=O: -2.78%
Cc1nc(N2CC[C@@H](O)C2)ncc1-c1cc(C(F)(F)F)cc2[nH]ncc12: -11.4%
CC(=O)Nc1c(F)cc(C(=O)N[C@H]2CC[C@H](O)CC2)cc1O[C@@H](C)c1ccccc1: 27.1%
O=C(Nc1cnc(Oc2ccc(F)cc2)nc1)N1CCc2ncccc2[C@@H]1c1ccc(F)cc1: -10.3%

Study 4 — mode: inhibitor; concentration: 10 µM; baseline: control; measurement: remaining activity
Target: Diamine acetyltransferase 1 (Homo sapiens, UniProt P21673)
Residues (P21673 1-171): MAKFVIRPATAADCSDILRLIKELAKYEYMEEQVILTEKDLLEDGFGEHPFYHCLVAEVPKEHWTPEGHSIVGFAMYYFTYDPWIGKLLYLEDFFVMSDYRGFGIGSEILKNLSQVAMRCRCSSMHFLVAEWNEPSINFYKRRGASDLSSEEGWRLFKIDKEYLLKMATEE
COP(=S)(OC)Oc1cc(Cl)c(Cl)cc1Cl: 108%
COc1ccc2c(c[n+](C)c3c4cc5c(cc4ccc23)OCO5)c1OC: 100%
Oc1ccc(CCc2cc(O)cc(O)c2)cc1: 102%
O=C1C=CC(=O)c2c(O)cccc21: 80.1%
COc1cc2c3c(c1O)-c1ccccc1C[C@@H]3N(C)CC2: 120%
CCCCCCCCOC(=O)c1ccccc1C(=O)OCCCCCCCC: 96.8%
COc1cc2occc2c2oc(=O)ccc12: 85.9%

Study 5 — cell line: HaCaT; concentration: 100 µM; time: 18 h; measurement: viability
O=C(CCCN1CCC2(CC1)C(=O)NCN2c1ccccc1)c1ccc(F)cc1: 71.3%
C[C@]12CCC(=O)C=C1CC[C@@H]1[C@@H]2CC[C@@]2(C)[C@H]1CC[C@]2(C)O: 89%
CC(C)OC(=O)[C@H](C)N[P@](=O)(CO[C@H](C)Cn1cnc2c(N)ncnc21)Oc1ccccc1: 116%
O=C(O)[C@@H]1[C@H](C(=O)O)[C@H]2CC[C@@H]1O2: 108%
CCO[C@H]1O[C@@H]2O[C@@]3(C)CC[C@H]4[C@H](C)CC[C@@H]([C@H]1C)[C@@]24OO3: 65.2%
CC(C)c1cccc(C(C)C)c1O: 36.3%
C=C1C[C@@H]2[C@H](CC[C@]3(C)C(=O)CC[C@@H]23)[C@@]2(C)C=CC(=O)C=C12: 69.7%
Clc1ccc(C(OCCN2CCCCC2)c2ccccc2)cc1 (stereo not shown): 15.2%

For quick reference, copied from above (study 4):
COP(=S)(OC)Oc1cc(Cl)c(Cl)cc1Cl: 108%
COc1ccc2c(c[n+](C)c3c4cc5c(cc4ccc23)OCO5)c1OC: 100%
Oc1ccc(CCc2cc(O)cc(O)c2)cc1: 102%
O=C1C=CC(=O)c2c(O)cccc21: 80.1%
COc1cc2c3c(c1O)-c1ccccc1C[C@@H]3N(C)CC2: 120%
CCCCCCCCOC(=O)c1ccccc1C(=O)OCCCCCCCC: 96.8%
COc1cc2occc2c2oc(=O)ccc12: 85.9%
